Experimental data pooled from the literature.
Numbered parts are unrelated; each lists some results of a single study.

Series 1
Target: RNA binding protein fox-1 homolog 2, RRM domain, GST-SBP tag (RBFOX2, Homo sapiens, UniProt O43251-10, residues 100-194)
Technique: RNA Bind-n-Seq
Molecule type: RNA
Medium: in vitro
Tested at: 365 nM
Setting: natural RNA segment, single round, ends assumed
Baseline: no-protein control
Direction: higher = stronger binding
All sequences stand within: GGGAGUUCUACAGUCCGACGAUC … UGGAAUUCUCGGGUGCCAA
Construct (chain): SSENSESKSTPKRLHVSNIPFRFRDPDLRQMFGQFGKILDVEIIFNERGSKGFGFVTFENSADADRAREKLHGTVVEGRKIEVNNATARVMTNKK
Sequence	RBNS enrichment (R)
GUUUUCAUAAGCACCAUGAAGAAUGGUGUUUCCUAAAUGAAAAGUUCAGAUACUGCUGGUAAAGAAACUGGAAAAACUGAAGGAAGGAAUAAAAUAUGUUGGUGGUAUUA	0.598
GACUCUGCUACAUACAGGGUCCAUGUGGGCUGAUAACUAGUACCAGGGGCCUGCUGCAUGCUACGCAUUGGGAUGGGUGCCCGACAUAAUACUGAAUCCUCAAGAAGCCU	2.64
UAGAUGGCAGCCCUGGGCUGUCUCUGCUAUGGGGUGACCUUUCUACCUCCACACAAGACCCUGUUGACUCAGGAGGAUCUCCGCAAUGGUUGAUUAAUAGCUGAAGCAAA	0.216
UAACAAUAUUUUGUAAAAUGAUGCUUCCCCCUUCUCCAUGGUCUAGUCAAUUUUGUACAAUUAGGUAUCUGACUUUACAAGUUUGUUAUCCUUUCUAAUUUUUACUGAAC	0.488
UUUAAAAAUCUGUGAAAUUAACAUGCUUGUGUAUAGCUUUCUAAUAUAUAUAAUAUUAUGGUAAUGGCAGAAGUUUUGUUUUCUUAAUAGCGGGAGGGGGGUAUAUUUGU	0.816
UGCGGUCACCAUGGGUGAGCACUGUCUGUGCACGUGCCAGGGAGGAGAUGGCUGGGACCACUGCACAGGAGGGCGCAGCCUGGCGUCGCCAUGAAAGUUGUCUCUGUGCC	0.881
CCUGAAAUAUUAAGGGCAGUUUGCUUCUAGUUUGGGGAUUGCGCUAGCCCAAUGAAGGUGAUGAAGCUUUUGGAUUUGGAGGGUAAAAGCUCCUUCACACCCCUUCCAAA	0.304
AGAUGGCAUCUCAUCGAUGAGAGAGAAUCACAAUCAGAAUGGAAGCACUUUGAGUAUCUGAAGAGUGAGAGCAUUCAUGUUUGACAGGUCCUGCUUCCCACUAUCCUUUU	0.323
GCAAACUCUCCCAGCUCUGUGAAUCUACAGAAGAGGGGGUCAGGCUGAGGUGGUUGUGACCUGGAUCUUGAAGACUAAAAGACACAGAGUCUGCUGAGCUGCUCCUGUGC	0.337
AGUGCUCUCCCCUAAGUUGGGUGCUAAGAGCUUUUGUCAGUGAGGGGCCUCUGUCAUUGUCUCAAAGACAGAGCUUAAAGAGGUCAGAAUGAGUUCUCUGUUGUGCCCCC	0.378
AGAUGGGUAGAGUUGGGUUCUUGAGUUUUACCACCACUUAGUUCCCACUGAAUUUUGUAACUUCCUGUGUUUGCAUCCUCUGUUCCUAUUCUGCCCUUGCUCUGUGUCAU	2.01
UUGCCAGUUUGAAGACUGUUCUCCUAAAGUGUUCAACCUGCACUUCUUACAACCAAGGUAGUUUGUAUCAUUUUCAAAAGUACACAUUAUUAGGGUCUAGUUGCCCCUGG	0.268

Series 2
Target: RING finger protein unkempt homolog, zinc fingers 1-6, SBP tag (UNK, Homo sapiens, UniProt Q9C0B0, residues 30-357)
Chain of UniProt Q9C0B0 (30-357, looked up): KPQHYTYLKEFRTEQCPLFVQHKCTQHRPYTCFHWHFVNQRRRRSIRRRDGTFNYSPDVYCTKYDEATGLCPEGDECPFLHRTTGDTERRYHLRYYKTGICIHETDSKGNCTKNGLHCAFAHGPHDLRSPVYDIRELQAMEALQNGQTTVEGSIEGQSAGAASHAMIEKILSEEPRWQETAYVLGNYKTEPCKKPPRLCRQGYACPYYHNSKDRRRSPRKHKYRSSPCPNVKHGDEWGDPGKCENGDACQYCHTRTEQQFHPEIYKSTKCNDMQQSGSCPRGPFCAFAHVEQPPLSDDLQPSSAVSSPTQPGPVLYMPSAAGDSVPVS
Technique: RNA Bind-n-Seq
Molecule type: RNA
Medium: in vitro
Tested at: 100 nM
Setting: RNA with constant flanks, vertebrate orthologous sites, ends assumed
Baseline: input RNA pool
Direction: higher = stronger binding
All sequences stand within: GGGAGUUCUACAGUCCGACGAUC … CAACAGAGGAUUGAGCAUCA
Sequence	bound/input enrichment [ratio]
CCCUGUUAUCCUAAAAAUUGACUUUUUUUAACAGUUGUGUUGCCACCACUUGCUAAAAAAAAUUAGCAAUAUUAGAAUAAGAGUAAAAAUUAGAGUAAGAAAUCUUGCUCAUGGUUUUGC	0.185
UUCUCAACUUGUUCUAGCUGGUGAUCGUUCAAAGUUGGGUCAGGCAGUAGUGCUAGGUACUAGAAAUUUUCAUUUCCCUAUUGCCAUUGAUCAGAGAAGACAGACAUUAAAAAUAGAAAU	0.927
CCCACUACUCCUGGGUGCGUGACUGCCAGGGAAGCAUCCACCAGUGCUGCAAGGGGUGCAGAGUGUUUUUUUUGCUGCCUCAGUCCCCAAUGCCUUCAAGCAGAAGUGGCAGUAGAUUGU	0.23
CCCAGGGACUCCUCUGGGGACAGGUGGUGGGGCCCACUGGCCAUAUCAUCGAGGCCGUUUUAGCUUCAUUUAAAAAAAAAUUUAACAGUGCCCUUAUUAACCUGUAUGACUGAGAUUUGG	0.427
UUACAGUCAUUGAUGGACUCUAUUUUUUUAUUAUUACUUGGACCUUGGUCGUUUUUAUACUAGCAAAAUGUCUUGUUUUAAUUUGUGUUUUUUGGGGGGAGGGAGGGAGUGAACUUGCUG	2.03
UGAAAAUGACUUUAAGCACCAUUAAAGAAUAAAAAGGCCCCCAAAUAUAAGACUCCUAAAUAGCUAUUUUUGAAACUAAAUGUUUAGAUUUUGUAAAUGAGCUGUUGCCCACUACACAAU	0.805
ACGCCCUUAUGUGCUGUUCCCGCCAGGGGCAAGGGCCAGAUGUCUCGCCGAGGACCUGCGUUUAAAACAUUUUUUAAAUCGUUGUACAGGAAGAGAUGUAAACAGCAUCUCAAAGUCCAG	0.157
AUUCAAACCUGUGAUACCAUGGCCUCACGUGGAGGGCGUAGAAGUGGACUUAGAGUCUAUUAGAAGGAAAAACAAGGCCAGAAAUGACCAGGAACGCCGUGCAGGAGGGGACCCCCAGAA	0.526
AAAUUUAUUUCAUGCCCUGGACUCCCUAUCGUACCGAUACUUUAAUAGAAUAUGCUUCUAUAGAAGAUUUCCAAAACAGUCGCCAGACAACAACAUACAAACUUCCAAAUCGAGUAGAUG	0.96
AGCAACCCAUGGAUUCAGGACUGGUUUCACAAAUAUACCAAGUAGAUACGGAAGUAACAACAGAAUUGGACAACCAAGACCAUGAUGUGCUCUAACUUAUUUGAUAUUGACUCUUUGGCU	0.541
UUAUCUUAGGAUGAAGCUGUUAAACCAGAUGUCACGAGUCUGGAAAACAGAUGGCCUAUCAAGUUGUUCUUACAGAUUACUCUCCGUGGAACACAAUCCUUUAUACAUCAACGUCACAGU	0.34

Series 3
Target: Protein max, full length (MAX, Homo sapiens, UniProt P61244-2, residues 1-151)
Technique: protein-binding microarray
Molecule type: double-stranded DNA, one strand shown
Medium: in vitro
Tested at: not given
Setting: k-mer, scored over probes, only values ≥0.25
Direction: higher = stronger binding
Sequence	E-score
CGTGTATC	0.348
AGGCATGC	0.408
ACGTGCAC	0.457
CACGCAAC	0.317
CGTGGACC	0.261
CATGCGTC	0.438
CATGAGGG	0.391
CACATTGG	0.306
CATCGATG	0.273
CCAGGCGG	0.273
CACTCCAC	0.254
CACGTGGA	0.497
ACACGAGT	0.41
CACGAGTA	0.398
GCATGCCC	0.405
CCACGCCC	0.361
CATGTGCC	0.476
AGCATGTG	0.475
CATGGTCA	0.373
ACCACATG	0.477
ACGTGGAG	0.431
AAGCAGGT	0.284
CGTGCAAG	0.335
CACGCCCA	0.347
GCCACCCC	0.259

Series 4
Target: Centromere-binding protein 1, full length, N-terminal tag (CBF1, Saccharomyces cerevisiae, UniProt P17106, residues 1-351)
Chain of UniProt P17106 (whole entry, looked up): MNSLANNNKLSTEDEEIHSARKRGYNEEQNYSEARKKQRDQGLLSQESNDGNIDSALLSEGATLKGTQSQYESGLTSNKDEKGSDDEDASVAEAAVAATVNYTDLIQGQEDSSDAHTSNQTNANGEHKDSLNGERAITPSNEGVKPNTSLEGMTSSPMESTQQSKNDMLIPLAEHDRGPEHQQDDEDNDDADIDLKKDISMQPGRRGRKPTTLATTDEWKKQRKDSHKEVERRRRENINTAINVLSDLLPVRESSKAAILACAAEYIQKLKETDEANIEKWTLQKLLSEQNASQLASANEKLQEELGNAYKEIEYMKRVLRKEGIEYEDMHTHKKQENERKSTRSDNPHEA
Technique: protein-binding microarray
Molecule type: double-stranded DNA, one strand shown
Medium: in vitro
Tested at: 0.8 µM
Setting: whole 60-bp probe, no competitor
Direction: higher = stronger binding
All sequences stand within: … GTCTTGATTCGCTTGACGCTGCTG
Sequence	fluorescence intensity [a.u.]
GAAGAATAAGCTGGTCATGATGTCGCTATTTCTTAG	626
GAAACATAAGCAAAGCACATGGGAATAGACAATTAG	577
CTATCGGGAGGTCAATTGGTGGTGCCGGTTGTGTTC	454
CTATAAGGCCATTGTCACCTTCGGCCAGCGATATTC	508
GAAGGTTTTAAAAGTCACGTGCTTAAGTCCATTTAG	23200
CTAAATTGCGGGCAGCACATGTATATATTATACTTC	669
CTACGCGCCTAACATATCATGATGATTGGGTGTTTC	536
GAAGGCGGTTTTTCGCGTGTGACTCAATGTCGATAG	664
CTAATTTTACAATTTCATGTGCACACACCAAGGTTC	562
CCTAACTACTATAGTGATGTTGGATAGCTTCGTACA	533
CCTAACTACTATAGGAACGTGCCATAGCTTCGTACA	741
CTACGTTTACGCTCGCGCGTGGGCTAACTAACGTTC	543
CTAGAGCGATGCCATCATCACATGCACGTTTTCTTC	2200
CTATTCTTCTATACGTTCGTGATACTGCACTTATTC	552
CTATTTTTCTTCTGTCAGGTGAAAGTATATGACTTC	1160
CTAGAGACCGTACCACACGTTTAGAGCAGCCAGTTC	530
CTATTTCATCTTAATCACGGATGTATACTGATATTC	609
TGTACGAAGCTATTCCGTGCACATATAGTAGTTAGG	513
CTATGGATAGTGCACCACGAGACTTGGCATGATTTC	822
GAAATCGGCGGTGATGGTGATGATGAATCATCTTAG	501
TGTACGAAGCTATACAGCGTGACTATAGTAGTTAGG	983

Some of these lines once more (series 2):
Sequence	bound/input enrichment [ratio]
CCCACUACUCCUGGGUGCGUGACUGCCAGGGAAGCAUCCACCAGUGCUGCAAGGGGUGCAGAGUGUUUUUUUUGCUGCCUCAGUCCCCAAUGCCUUCAAGCAGAAGUGGCAGUAGAUUGU	0.23
CCCAGGGACUCCUCUGGGGACAGGUGGUGGGGCCCACUGGCCAUAUCAUCGAGGCCGUUUUAGCUUCAUUUAAAAAAAAAUUUAACAGUGCCCUUAUUAACCUGUAUGACUGAGAUUUGG	0.427
UUACAGUCAUUGAUGGACUCUAUUUUUUUAUUAUUACUUGGACCUUGGUCGUUUUUAUACUAGCAAAAUGUCUUGUUUUAAUUUGUGUUUUUUGGGGGGAGGGAGGGAGUGAACUUGCUG	2.03
UGAAAAUGACUUUAAGCACCAUUAAAGAAUAAAAAGGCCCCCAAAUAUAAGACUCCUAAAUAGCUAUUUUUGAAACUAAAUGUUUAGAUUUUGUAAAUGAGCUGUUGCCCACUACACAAU	0.805
ACGCCCUUAUGUGCUGUUCCCGCCAGGGGCAAGGGCCAGAUGUCUCGCCGAGGACCUGCGUUUAAAACAUUUUUUAAAUCGUUGUACAGGAAGAGAUGUAAACAGCAUCUCAAAGUCCAG	0.157
AUUCAAACCUGUGAUACCAUGGCCUCACGUGGAGGGCGUAGAAGUGGACUUAGAGUCUAUUAGAAGGAAAAACAAGGCCAGAAAUGACCAGGAACGCCGUGCAGGAGGGGACCCCCAGAA	0.526
AAAUUUAUUUCAUGCCCUGGACUCCCUAUCGUACCGAUACUUUAAUAGAAUAUGCUUCUAUAGAAGAUUUCCAAAACAGUCGCCAGACAACAACAUACAAACUUCCAAAUCGAGUAGAUG	0.96
AGCAACCCAUGGAUUCAGGACUGGUUUCACAAAUAUACCAAGUAGAUACGGAAGUAACAACAGAAUUGGACAACCAAGACCAUGAUGUGCUCUAACUUAUUUGAUAUUGACUCUUUGGCU	0.541
UUAUCUUAGGAUGAAGCUGUUAAACCAGAUGUCACGAGUCUGGAAAACAGAUGGCCUAUCAAGUUGUUCUUACAGAUUACUCUCCGUGGAACACAAUCCUUUAUACAUCAACGUCACAGU	0.34
